Experimental data of several laboratories.
Parts stem from different laboratories: compare values within a part only. Substitutions count along the parent as printed.

Sample 1
Target: ABI1, truncated, D143A, DHFR fusion (Arabidopsis thaliana)
Technique: DHFR PCA, deep sequencing
Sample: yeast
Setting: methotrexate growth selection, single substitutions
Together with: (+)-ABA 0.0091 µM
Baseline: wild-type fitted maximum
Direction: higher = stronger binding
Starting sequence: PYL1, truncated, DHFR fusion (Arabidopsis thaliana); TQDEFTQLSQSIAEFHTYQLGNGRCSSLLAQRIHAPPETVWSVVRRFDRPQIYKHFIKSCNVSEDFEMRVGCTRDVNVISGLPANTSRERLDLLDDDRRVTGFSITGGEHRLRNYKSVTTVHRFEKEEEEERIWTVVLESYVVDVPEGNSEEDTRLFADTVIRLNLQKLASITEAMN; partner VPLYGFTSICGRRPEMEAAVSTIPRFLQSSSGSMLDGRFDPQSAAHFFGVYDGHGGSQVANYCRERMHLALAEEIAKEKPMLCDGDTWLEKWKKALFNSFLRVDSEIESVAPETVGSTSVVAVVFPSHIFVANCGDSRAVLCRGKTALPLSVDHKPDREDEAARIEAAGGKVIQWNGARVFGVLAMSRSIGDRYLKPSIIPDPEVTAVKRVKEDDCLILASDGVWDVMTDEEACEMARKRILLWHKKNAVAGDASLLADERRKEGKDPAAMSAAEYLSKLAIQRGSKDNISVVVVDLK
Variant | relative binding score [%]
S150V | 0.565
S42M | 4.97
R132C | 42.2
D3S | 24.6
P146E | 2.78
T120Y | -5.69
I57N | -0.521
E89M | 3.53
R45E | 1.08
P36G | 3.72
T39Q | 6.87
V118I | 20.6
L82P | 0.039
A84I | 33.1
A13W | -0.309
E14L | 4.16

Sample 2
Target: CCNB3, cyclin fold, Cln2 fusion (human)
Technique: yeast growth competition, sequencing
Sample: yeast
Setting: weak parent motif
Baseline: not given
Direction: higher = stronger binding
Starting sequence: CDT1 docking peptide (human); PPARRRLRLSVDE
Variant | normalised enrichment score
PPARRRLRLSADE [V11A] | 0.127
PPARKRLRFSVDE [R5K L9F] | 0.233
PPARRRLRASVDE [L9A] | 0.102
PPARRRARLSVDE [L7A] | 0.683
PPARRRLRLSVAE [D12A] | 0.661
PPARRRLRLAVDE [S10A] | -0.019
PPARARARLSVDE [R5A L7A] | -0.176
PPAARRLRLSVDE [R4A] | 0.149
PPARKRLRLSVDE [R5K] | -0.0317

Sample 3
Target: RNA binding protein fox-1 homolog 2, RRM domain, GST-SBP tag (RBFOX2, Homo sapiens, UniProt O43251-10, residues 100-194)
Technique: RNA Bind-n-Seq
Form: RNA
Sample: in vitro
Concentration: 365 nM
Setting: natural RNA segment, single round, ends assumed
Baseline: no-protein control
Direction: higher = stronger binding
All sequences stand within: GGGAGUUCUACAGUCCGACGAUC … UGGAAUUCUCGGGUGCCAA
Residues (chain): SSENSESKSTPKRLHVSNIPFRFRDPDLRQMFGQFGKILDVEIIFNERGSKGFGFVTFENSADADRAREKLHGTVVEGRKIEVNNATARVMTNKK
Strand | RBNS enrichment (R)
GACUCGGUUUCUCCAAACUGAAGCAGCCUCUCCCCAGGUCCAGCUCUGGAGGGGAGGGGGAUCCGACUGCUUUGGACCUAAAUGGCCUCAUGUGGCUGGAAGAUCCUGCG | 0.321
UUACUCUAGGGUAUUGAAUAAAUUUAGUCUUAUUAGAAAAAUAAAAGUUGUCUCAUGACUUUGUUUUGAGGUCUCUGGUAAGAAUUUUUUCAGGACCUGGAGAGAUAGCU | 0.502
UGUGUGUGAUGAGUUGAGGGCUUUCCCACCUGCACGGGCCUUCACGGGCUCCACGCUUUUGCUGUCCUUGACACCUCUCGUUGGGGCUUCUGCAGGCAUCUCUGUCUGAG | 0.7
UGACCAUAGCCUGUCACCACCCAACAUCACCACGGGCUGGGUUUUGUGUUUCACAUUGGGUAGUAUGCAUUCUGUCUGCACUGUCCCACCUUCUCAUCUCUACCUUUUAA | 0.731
AAAACAGUCUGAAUGAAUUUGGUGAAAAGUGGGAGUUAAACUCUGGAGAUGGAGCUUUCUAUGGCCCAAAGGUUGACAUACAGAUUAAAGAUGCGAUUGGGCGGUACCAC | 0.571
CAGAACUAAAUUGCCGCAGACAGGAGUUAAAGUUUUAUAUUUUCCUGCUCAGUUAUCUAAUGUCUUAGAUCAGUGGUCCCCAAAUUUUGCUACAUAUUAGAAUCAUCUGG | 0.386
UGUGUCAAGAAAAGAGCAGUCACUCUCAGAAUCUUGAUUCCCCAUCAGCCAAAGCAAAAGAUGGCUGCUGCUUUGUAGGCAUGUGCCUGCAAGUGGGACCUUGCUGGGCA | 0.354
GGGUAAGCAGUCCUGUGAGUGGCGCAUGAACGCUGGAGCUUAUUCCGCCGCCUGCCCCAGUGUGGGGGGAGAUACCUUUACCAUGAACUUACAGAAUUAAAGAUGGCCCA | 3.75
CCAGUUCUCAUAAAUAUUGAUCACUUAAAAAACUUACUCUUUCUUGAAAAGGUACACAUGUAAAAUUUAGGAAAAUAACUAAAGUAGGGGCUGGAACCAUAAGAAGAAUG | 0.466
AGAUCUAUCCGAGUGCUUCCUUCAACUGACCAUAUGCUUCUUCCUCGUGUCUGCCUGCGGGCUCCUGAGGGUCCACAGCUGAGCUGAUCCAUCUUUCCCUCAAGUGACCG | 1.35
CUGUGGCACUCAGGGUCAAACAGACUAUCCAUUCCCCAGCAUGAAUGUGCCUUUUAAUUAGUGAUCUAGAAAGAAGUUCAGCCGAACCCACACCCCAACUCCCUCCCAAG | 4.66
UGUGUUUAGCAUAGGUGCUGUAGUUGGAGUGGGCCCCACCUCUGCUCCUUUCAGUGUUCUUGCUGUUCAAGUUAUUCCUCUCAGACAUCCUCCAUUGUCCCACGCACUCC | 1.14

Sample 4
Target: Prothrombin, mature alpha-thrombin (F2, Homo sapiens, UniProt P00734)
Technique: aptamer microarray, sandwich
Form: DNA with 2'F-ANA
Sample: in vitro
Concentration: 200 nM
Setting: whole 15-mer aptamer, many near background
Together with: Cy3 exosite-II aptamer, 400 nM
Direction: higher = stronger binding
Strand: GGTTGGTGTGGTTGG
Modification | mean fluorescence intensity [a.u.]
2'F-ANA at 3 4 8 14 | 462
2'F-ANA at 1 2 3 4 6 7 8 10 12 13 14 15 | 52
2'F-ANA at 2 5 6 7 9 14 15 | 48.3
2'F-ANA at 3 5 6 7 8 9 11 14 15 | 64.7
2'F-ANA at 4 11 12 13 14 | 113
2'F-ANA at 1 2 3 4 5 6 10 13 14 | 46.3
2'F-ANA at 2 6 7 9 13 14 | 114
2'F-ANA at 1 3 4 7 8 9 10 11 13 | 59
2'F-ANA at 1 3 5 6 7 8 9 10 14 15 | 50.9
2'F-ANA at 1 3 4 6 7 9 10 11 13 15 | 60.2
2'F-ANA at 1 2 4 5 6 9 13 | 49.8
2'F-ANA at 3 4 5 7 8 9 10 11 12 15 | 71.9
2'F-ANA at 1 2 3 4 5 7 8 10 11 13 14 15 | 47.1
2'F-ANA at 2 3 4 5 6 14 15 | 55.4
2'F-ANA at 1 4 5 7 9 10 11 12 15 | 59.5
2'F-ANA at 1 2 3 6 7 8 9 10 11 12 13 15 | 73.8
2'F-ANA at 2 4 6 7 8 10 11 12 13 15 | 82.4
2'F-ANA at 2 5 7 8 9 14 15 | 131
2'F-ANA at 1 5 7 8 9 13 | 48.5
2'F-ANA at 2 3 8 9 11 13 14 | 425
2'F-ANA at 4 5 8 10 12 13 14 | 44.7
2'F-ANA at 2 3 5 6 8 9 12 14 15 | 58
2'F-ANA at 3 8 14 15 | 636

Sample 5
Target: Sal-like protein 4, full length isoform B (SALL4, Homo sapiens, UniProt Q9UJQ4-2, residues 1-616)
Technique: universal PBM
Form: double-stranded DNA, one strand shown
Sample: in vitro
Concentration: not given
Setting: 8-mer, flanks averaged, mean of replicates
Direction: higher = stronger binding
Strand | E-score
GTTAAATA | 0.314
AAAAGCCG | -0.17
AAGTTTAA | 0.15
CTCAGGGA | -0.275
ACTAATAC | 0.185
AGGCTCAT | -0.128
AGCACCAG | -0.116
CATCGTTC | -0.161
AACATGGC | -0.0433
ACCTTCTG | -0.0323
TGTGTTAA | 0.211
AGGCTGTA | 0.139
CATAAGAC | 0.221
AGCATTCA | 0.0443
CTTCTGAA | 0.122
AGATCGCG | -0.214
ATCGTTGC | -0.0941
ACAGTGAT | 0.0449
CTGGGTTA | -0.131
ACATGCTG | -0.0881
AATGTGAC | 0.0499
GTAGTGAA | 0.0902
CGACGACC | -0.22
CCCTTCCA | -0.226
CGCCTAGA | -0.0907

Sample 6
Target: Histone acetyltransferase KAT6A, winged helix 2, GST fusion (KAT6A, Homo sapiens, UniProt Q92794, residues 85-181)
Technique: protein binding microarray
Form: double-stranded DNA, one strand shown
Sample: in vitro
Concentration: not given
Setting: 8-mer, flanks averaged, mean of 2 arrays, mostly near background
Baseline: not given
Direction: higher = stronger binding
Residues (chain): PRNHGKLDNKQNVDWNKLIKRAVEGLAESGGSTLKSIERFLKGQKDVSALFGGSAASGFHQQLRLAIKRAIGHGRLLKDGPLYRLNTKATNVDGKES
Strand | E-score
ACCCACTA | 0.0342
AACTTTCT | 0.042
CCCTGAGC | 0.0327
AACATCGT | -0.00675
ATGCATCA | 0.0788
AACGGGAT | -0.0452
AACGTTGC | -0.193
AGAACGAG | 0.101
TAAAGTGA | -0.0684
ATCCTCCG | -0.16
CAGTGCCC | 0.0354
AGATTCGG | 0.0681
ACGCGCTG | 0.0738
ACTTGACA | -0.00351
AATTGCCT | 0.0361
GAAGAATC | 0.0173
CAATGCAG | 0.126
GGAGGAGA | 0.0483
AACGTTTG | -0.128
CGAGAATA | -0.0736
CCAAGCCC | -0.0924
ATAGTGTG | -0.104
ATCATTCG | 0.086
AGCGTGAG | -0.209
CGGGAATC | 0.0576

Excerpt of the above (sample 6):
Strand | E-score
CCCTGAGC | 0.0327
AACATCGT | -0.00675
ATGCATCA | 0.0788
AACGGGAT | -0.0452
AACGTTGC | -0.193
AGAACGAG | 0.101
TAAAGTGA | -0.0684
ATCCTCCG | -0.16
CAGTGCCC | 0.0354
AGATTCGG | 0.0681
ACGCGCTG | 0.0738
ACTTGACA | -0.00351
AATTGCCT | 0.0361
GAAGAATC | 0.0173
